Measured values from different studies.
A part holds a random share of what one study measured. Changes are numbered by the printed parent chain.

Block 1
Target: CCNB3, cyclin fold, Cln2 fusion (human)
Technique: yeast growth competition, sequencing
Sample: yeast
Notes: weak parent motif
Baseline: not given
Direction: higher = stronger binding
Parent: ANKRD17 docking peptide (human); PSVRRQLFVTVVK; partner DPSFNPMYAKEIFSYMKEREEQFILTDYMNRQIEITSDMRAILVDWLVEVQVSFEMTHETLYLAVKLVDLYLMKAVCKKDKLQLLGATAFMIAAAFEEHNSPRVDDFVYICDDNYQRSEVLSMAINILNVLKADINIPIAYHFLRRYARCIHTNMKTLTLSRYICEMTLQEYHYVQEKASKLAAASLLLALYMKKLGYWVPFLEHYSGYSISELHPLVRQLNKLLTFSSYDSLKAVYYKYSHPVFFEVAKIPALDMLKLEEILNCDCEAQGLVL
Under “normalised enrichment score”, `PSVRRQLAVTVVK [F8A]` is recorded as 0.363.
`PSVRRALFVTVVK [Q6A]`: “normalised enrichment score” 0.268.
For `PSVRRQLLVTVVK [F8L]`, “normalised enrichment score” read 0.541.
`PSVRRQLFVAVVK [T10A]` — result for “normalised enrichment score”: 1.1.
`PSVRAQLFVTVVK [R5A]`: “normalised enrichment score” 0.985.
Under “normalised enrichment score”, `PSVRRQLFVTVAK [V12A]` is recorded as 0.784.
`PSVARQLFVTVVK [R4A]`: “normalised enrichment score” 0.613.

Block 2
Target: UBE2G2 UBC core domain (UniProt P60604)
Technique: yeast two-hybrid
Sample: yeast
Notes: mostly zero background
Baseline: not given
Direction: higher = stronger interaction
B1: RNF175 RING domain (UniProt Q8N4F7); chain LPTRSLSDNICAVCGQKIIVELDEEGLIENTYQLSCNHVFHEFCIRGWCIVGKKQTCPYCKEKVDLKRMIS
B2: RNF112 RING domain (UniProt Q9ULX5); chain QPMAPRELPTCSICLERLRDPISLDCGHDFCIRCFSTHRLPGCEPPCCPECRKICKQKRGLR
B3: RNF14 RING domain (UniProt Q9UBS8); chain IKCFNSKLFLCSICFCEKLGSECMYFLECRHVYCKACLKDYFEIQIRDGQVQCLNCPEPKCPSVATPGQVK
B4: PHF7 RING domain (UniProt Q9BWX1); chain IQHGHVGEESCILCCEDLSQQSVENIQSPCCSQAIYHRKCIQKYAHTSAKHFFKCPQCNNRKEFPQEML
B5: MSL2 RING domain (UniProt Q9HCI7); chain LLPYFRQSLSCCVCGHLLQDPIAPTNSTCQHYVCKTCKGKKMMMKPSCSWCKDYEQFEENKQ
Target sequence (chain): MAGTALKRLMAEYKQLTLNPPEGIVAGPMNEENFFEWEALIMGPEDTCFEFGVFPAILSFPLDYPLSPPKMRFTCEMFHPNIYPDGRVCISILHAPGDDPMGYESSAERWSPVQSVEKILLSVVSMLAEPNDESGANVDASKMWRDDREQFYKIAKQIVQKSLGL
`B1 (RNF175 RING domain)`: “lacZ reporter activity” 0.
Under “lacZ reporter activity”, `QLQDEEDDSLCRICMDAVIDCVLLECGHMVTCTKCGKRMSECPICRQYVVRAVHVF (RNF34 RING domain (UniProt Q969K3))` is recorded as 0.
`B2 (RNF112 RING domain)`: “lacZ reporter activity” 0.
`B3 (RNF14 RING domain)`: “lacZ reporter activity” 0.
For `SYEDKSNDFVCPICFDMIEEAYMTKCGHSFCYKCIHQSLEDNNRCPKCNYVVDNIDHLY (COP1 RING domain (UniProt Q8NHY2))`, “lacZ reporter activity” read 0.
`B4 (PHF7 RING domain)`: “lacZ reporter activity” 0.
For `B5 (MSL2 RING domain)`, “lacZ reporter activity” read 0.
`FLKKLEQSFMCVCCQELVYQPVTTECFHNVCKDCLQRSFKAQVFSCPACRHDLGQNYIMI (UHRF2 RING domain (UniProt Q96PU4))` — result for “lacZ reporter activity”: 0.

Block 3
Target: RING finger protein unkempt homolog, zinc fingers 1-6, GST-SBP tag (UNK, Homo sapiens, UniProt Q9C0B0, residues 30-357)
Technique: RNA Bind-n-Seq
Form: RNA
Sample: in vitro
Tested at: not given
Notes: RNA with constant flanks, human-mouse chimeric sites, ends assumed
Baseline: input RNA pool
Direction: higher = stronger binding
Shared flanks, not repeated: GGGAGUUCUACAGUCCGACGAUC … CAACAGAGGAUUGAGCAUCA
Construct (chain): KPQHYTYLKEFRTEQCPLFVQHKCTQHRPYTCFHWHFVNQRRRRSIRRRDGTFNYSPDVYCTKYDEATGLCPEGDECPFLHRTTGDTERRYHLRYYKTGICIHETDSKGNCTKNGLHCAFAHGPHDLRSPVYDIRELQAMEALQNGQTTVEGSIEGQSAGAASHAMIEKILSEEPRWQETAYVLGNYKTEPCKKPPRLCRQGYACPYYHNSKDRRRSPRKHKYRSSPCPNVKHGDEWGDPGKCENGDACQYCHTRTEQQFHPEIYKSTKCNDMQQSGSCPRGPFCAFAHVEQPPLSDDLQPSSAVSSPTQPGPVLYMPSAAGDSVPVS
The bound/input enrichment of `GGCUGCUGGUGACUGUCCUGGAGUGGCUGGAGUUCCCGCCGGAGCGCGGCCAGACUAAUUUUAGAAAAUGCCAAGUAGGAAAUUUGCCGAUGGUGAAGUGGUCAGAGGCCGAUGGCCUGG` is reported as 7.59 ratio.
With `AUGGAACAUUUCGAUGCGUCACUCAGUACCUAUUUCAAGGCCUUCCUGGGCCCCCGAGAUACAAGAGUAAAAGGAUGGUUUCUUCUGGACAAUUACAUCCCUACGUUUGUCUGUUCUGUU` the bound/input enrichment was 0.104 ratio.
With `UACUACUAUGAUGGUGAUAUUGGCAAUUAUUAUUAUGGCCAGGGUCAUCCCAUGAAGCCUCAUAGAAUCCGGAUGACCCAUAACUUGCUGCUAAAUUAUGGUUUAUACAGAAAAAUGGAA` the bound/input enrichment was 0.22 ratio.
For `CGCGUCCUCUCGCUGCUGCGGAGCCCGAGCUGGGAACCAUUCCGGGACUGGUACCCUGCACACAGCCGCCUCUUCGAUCAAGCUUUCGGGGUGCCCCGGUUGCCCGAUGAGUGGUCGCAG`, the bound/input enrichment was 0.113 ratio.
`UACUACUAUGAUGGUGAUAUUGGCAAUUAUUAUUAUGGACAGGGUCAUCCCAUGAAGCCUCAUAGAAUCCGGAUGACUCAUAACUUGCUGCUAAAUUAUGGCUUAUACCGAAAAAUGGAA` gave a bound/input enrichment of 0.36 ratio.
The bound/input enrichment of `GAUCAUGGAACCAGAAUAGAAAUGAAGAUGAGAUUACCCAGACGAGCCCAAAACCGCGCGCUACAGAAAAGUAAACUUAACCUUGCAGAGUUCCUUAAUGAAGAUACAAGUUAAGAGAGC` is reported as 0.431 ratio.
`UCAGGAACCCAGACAAACAUGAAUGUAAAUGAAGUCAUUAGCAACAGAGCAAUUGAAAUGUUAGGAGGUGAACUUGGCAGCAAGAUACCUGUGCACCCCAAUGAUCAUGUUAAUAAAAGC` has a bound/input enrichment of 0.313 ratio.
For `CUUAAUGAUAUUUUGAGUGAAUAAAUGUAAAACCAUGGUCUGCUUUUGGUACAACACGCAUUAAUAAAAGGUUAAGUUUUGUUUUCCACUGAAGUACUAUUUAACAUCUCAGAAAAAAAC`, the bound/input enrichment was 0.128 ratio.
`CAGUUGAAGACAGAAAAGGAUGAGAAGGAGCUGUAUAAGGUACAUUUGAAGAAUACAGAAAUAGAAAAUACGAAGCUUGUGUCAGAGAUACAGACUUUAAAGAAUUUAGAUGGGAACAAA` has a bound/input enrichment of 3.35 ratio.
`CACACCCUCUUCUGCGGGACCCUCAUCUUGCAGGCCCGGGCCUAUGUGGGACCGCACGUCCUGGCAGUGGUGACCCGCACAGGGUUCUGCACAGCCAAAGGGGGCCUGGUGAGCUCCAUC` has a bound/input enrichment of 0.0844 ratio.
`CGCCUGGAUGAGGCGGGUGUCACAGAUGAAGUGCUAGAUUCUGCCAUGCAAGCCUUCCUUCUGGAGGUUAUCGUUAAACAUGGGGAGCCGGCACCUUAUUUAUGUAACAAAGAUCCGUUU` has a bound/input enrichment of 0.0668 ratio.

Block 4
Target: Histone acetyltransferase KAT6A, winged helix 1, GST fusion (KAT6A, Homo sapiens, UniProt Q92794, residues 1-85)
Technique: protein binding microarray
Form: double-stranded DNA, one strand shown
Sample: in vitro
Tested at: not given
Notes: 8-mer, flanks averaged, mean of 2 arrays, mostly near background
Baseline: not given
Direction: higher = stronger binding
Target sequence (chain): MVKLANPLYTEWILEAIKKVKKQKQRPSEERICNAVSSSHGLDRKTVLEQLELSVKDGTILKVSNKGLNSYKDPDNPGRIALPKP
`CGTTATCC` gave an E-score of -0.0994.
`ACTAACAT` gave an E-score of -0.116.
`CCAGCACA` has an E-score of -0.256.
`AGGGCCCT` has an E-score of -0.0979.
`ATCATGTC` gave an E-score of -0.0341.
`CTAGAACC` gave an E-score of -0.0678.
`CAGGCGAC` has an E-score of 0.119.
`ACAAAAGG` has an E-score of 0.00266.
`AAAAACAA` gave an E-score of -0.0207.
With `CGTTGTTA` the E-score was -0.0985.
The E-score of `ATTGTCCC` is reported as 0.0414.
`ACACCACC` gave an E-score of -0.138.
`AAGATAGC` gave an E-score of -0.0612.
For `CATGATAG`, the E-score was -0.127.
With `AAGGGATT` the E-score was -0.0423.
The E-score of `CGGTGCTC` is reported as 0.0635.
`ATAACGGG` has an E-score of 0.0938.
`ACGGGTAT` has an E-score of 0.25.
`TCCATAGA` gave an E-score of -0.0489.
The E-score of `CATCGAGC` is reported as 0.011.

Block 5
Target: ABI1, truncated, D143A, DHFR fusion (Arabidopsis thaliana)
Technique: DHFR PCA, deep sequencing
Sample: yeast
Notes: methotrexate growth selection, single substitutions
With: (+)-ABA 58 µM
Baseline: wild-type fitted maximum
Direction: higher = stronger binding
Parent: PYL1, truncated, DHFR fusion (Arabidopsis thaliana); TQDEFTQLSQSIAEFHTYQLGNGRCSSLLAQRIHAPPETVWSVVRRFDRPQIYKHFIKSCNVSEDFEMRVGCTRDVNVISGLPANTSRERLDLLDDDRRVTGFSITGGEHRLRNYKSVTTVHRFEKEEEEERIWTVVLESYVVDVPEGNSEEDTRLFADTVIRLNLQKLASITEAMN; partner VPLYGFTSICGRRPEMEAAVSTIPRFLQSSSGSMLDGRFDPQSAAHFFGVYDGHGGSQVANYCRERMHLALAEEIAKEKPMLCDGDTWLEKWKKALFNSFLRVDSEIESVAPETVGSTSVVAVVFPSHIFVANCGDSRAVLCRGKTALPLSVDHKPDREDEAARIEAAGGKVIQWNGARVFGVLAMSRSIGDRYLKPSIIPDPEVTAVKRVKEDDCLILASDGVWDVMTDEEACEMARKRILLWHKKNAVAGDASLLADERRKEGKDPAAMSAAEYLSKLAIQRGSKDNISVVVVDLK
`R45T` — result for “relative binding score”: 7.9%.
`L112Y`: “relative binding score” 5.28%.
Under “relative binding score”, `I33N` is recorded as -17.7%.
For `A30F`, “relative binding score” read 93%.
`K58Y`: “relative binding score” 72.1%.
Under “relative binding score”, `S27I` is recorded as -4.61%.
`C25I` — result for “relative binding score”: 82.9%.
For `C60K`, “relative binding score” read -3.09%.
`R163E`: “relative binding score” 53.1%.
`D3C` — result for “relative binding score”: 89%.
`S150C`: “relative binding score” 78.3%.
For `I133A`, “relative binding score” read 96.7%.
For `S42A`, “relative binding score” read 89.3%.
For `E139P`, “relative binding score” read -2.27%.
`Y53I` — result for “relative binding score”: 11.1%.

A few entries again (block 5):
For `S42A`, “relative binding score” read 89.3%.
For `E139P`, “relative binding score” read -2.27%.
`Y53I` — result for “relative binding score”: 11.1%.
